Assay results collected from several papers.
Numbered parts are unrelated; each lists some results of a single study. Several values in a cell are separate wells, animals, samples, runs or records.

Sample 1
SMILES: CN1CC[C@H](c2c(O)cc(O)c3c(=O)cc(-c4ccccc4Cl)oc23)[C@H](O)C1
Host: nude mouse, HH xenograft
Dose: dose not given
Quantity: tumour volume
day 10: 90.4 mm³ and 50.2 mm³ and 165 mm³ and 191 mm³ and 116 mm³ and 60.7 mm³ and 109 mm³
day 17: 144 mm³ and 126 mm³ and 356 mm³ and 234 mm³ and 200 mm³ and 75.7 mm³ and 109 mm³ and 252 mm³
day 12: 110 mm³ and 43.5 mm³ and 180 mm³ and 127 mm³ and 57.7 mm³ and 80.6 mm³ and 71.5 mm³
day 6: 96.8 mm³ and 90.4 mm³ and 103 mm³ and 127 mm³ and 108 mm³ and 80.6 mm³ and 102 mm³ and 81.9 mm³

Sample 2
Structure (SMILES): COc1ccc2c(O[C@@H]3C[C@H]4C(=O)N[C@]5(C(=O)O)CC5/C=C\CCCCC[C@H](NC(=O)OC5CCCC5)C(=O)N4C3)cc(-c3csc(NC(=O)C(C)C)n3)nc2c1C (stereo partly drawn)
Tested at: 1 µM
Reference: DMSO
Quantity: viability
sample BA colorectal tumour organoid: 125%
colorectal tumour organoids: 104%
sample B colorectal tumour organoid; replicate 1: 98.1%
sample C colorectal tumour organoid; replicate 1: 109%
sample C colorectal tumour organoid; replicate 2: 108%
sample B colorectal tumour organoid; replicate 2: 110%
sample I colorectal tumour organoid; replicate 2: 78.3%
sample I colorectal tumour organoid; replicate 1: 85.6%

Sample 3
Cell line: A-375
Tested at: 100 µM
Time: 18 h
Quantity: viability
C[C@H]1[C@H](OC(=O)CCC(=O)O)O[C@@H]2O[C@@]3(C)CC[C@H]4[C@H](C)CC[C@@H]1[C@@]24OO3: 73.6%
O=c1[nH]c(=O)n([C@H]2C[C@H](O)[C@@H](CO)O2)cc1C(F)(F)F: 64.6%
CC(C)(C)NC[C@H](O)COc1nsnc1N1CCOCC1: 99.7%
COc1cc(N)c(Cl)cc1C(=O)N[C@@H]1CCN(CCCOc2ccc(F)cc2)C[C@@H]1OC (racemic): 83.4%
CC(C(=O)O)c1ccc2c(c1)CC(=O)c1ccccc1S2 (stereo not drawn): 97.5%
CC1(C)[C@@H](O[C@H]2O[C@H](C(=O)O)[C@@H](O)[C@H](O)[C@H]2O[C@@H]2O[C@H](C(=O)O)[C@@H](O)[C@H](O)[C@H]2O)CC[C@]2(C)[C@H]3C(=O)C=C4[C@@H]5C[C@@](C)(C(=O)O)CC[C@]5(C)CC[C@@]4(C)[C@]3(C)CC[C@@H]12: 95% and 104%
CO[C@H]1C(=O)[C@]2(C)[C@@H](OC)C[C@H]3OC[C@@]3(OC(C)=O)[C@H]2[C@H](OC(=O)c2ccccc2)[C@]2(O)C[C@H](OC(=O)[C@H](O)[C@@H](NC(=O)OC(C)(C)C)c3ccccc3)C(C)=C1C2(C)C: 54.4%
O=c1ccn([C@@H]2O[C@H](CO)[C@@H](O)[C@H]2O)c(=O)[nH]1: 111%

Sample 4
Target: Non-receptor tyrosine-protein kinase TYK2 (TYK2, Homo sapiens, UniProt P29597)
Chain of UniProt P29597 (whole entry, looked up): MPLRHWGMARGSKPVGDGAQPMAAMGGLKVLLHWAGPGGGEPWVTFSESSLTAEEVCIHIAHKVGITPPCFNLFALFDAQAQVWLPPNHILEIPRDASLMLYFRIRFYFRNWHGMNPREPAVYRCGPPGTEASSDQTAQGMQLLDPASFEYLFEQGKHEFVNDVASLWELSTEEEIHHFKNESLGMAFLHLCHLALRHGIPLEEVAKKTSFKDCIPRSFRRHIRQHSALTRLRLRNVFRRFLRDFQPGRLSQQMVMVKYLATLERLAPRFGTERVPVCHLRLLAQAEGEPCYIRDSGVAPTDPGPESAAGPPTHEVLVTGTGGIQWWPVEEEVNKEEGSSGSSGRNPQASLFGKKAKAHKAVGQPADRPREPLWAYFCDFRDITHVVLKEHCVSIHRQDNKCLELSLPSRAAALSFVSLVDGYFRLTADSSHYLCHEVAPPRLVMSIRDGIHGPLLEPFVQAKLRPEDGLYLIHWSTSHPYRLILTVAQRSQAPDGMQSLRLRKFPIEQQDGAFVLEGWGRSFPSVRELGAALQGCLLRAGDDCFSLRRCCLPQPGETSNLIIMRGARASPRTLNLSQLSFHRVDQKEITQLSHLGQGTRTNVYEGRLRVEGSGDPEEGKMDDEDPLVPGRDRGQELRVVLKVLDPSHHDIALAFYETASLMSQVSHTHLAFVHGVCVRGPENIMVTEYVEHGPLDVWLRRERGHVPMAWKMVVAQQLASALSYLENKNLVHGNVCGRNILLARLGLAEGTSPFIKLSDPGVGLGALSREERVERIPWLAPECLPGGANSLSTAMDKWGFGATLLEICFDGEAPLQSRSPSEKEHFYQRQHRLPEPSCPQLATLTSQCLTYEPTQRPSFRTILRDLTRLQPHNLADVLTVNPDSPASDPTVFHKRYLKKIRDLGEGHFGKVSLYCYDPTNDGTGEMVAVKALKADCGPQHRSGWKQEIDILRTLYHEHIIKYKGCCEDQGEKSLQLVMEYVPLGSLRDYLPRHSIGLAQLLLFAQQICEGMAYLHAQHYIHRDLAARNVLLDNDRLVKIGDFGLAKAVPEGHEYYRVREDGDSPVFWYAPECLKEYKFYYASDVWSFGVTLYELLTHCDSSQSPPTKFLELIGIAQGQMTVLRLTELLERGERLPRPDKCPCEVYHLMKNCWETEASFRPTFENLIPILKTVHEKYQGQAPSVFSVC
Observed: enzyme activity
Action: inhibitor
Tested at: 0.5 µM
Reference: control
Quantity: remaining activity
O=S(=O)(c1cccc2cnccc12)N1CCCNCC1: 81.6%
CC(C)[C@H](CO)Nc1nc(Nc2cc(N)cc(Cl)c2)c2ncn(C(C)C)c2n1: 57.9%
Cc1ccc(NC(=O)c2ccc(CN3CCN(C)CC3)cc2)cc1Nc1nc(-c2cccnc2)cs1: 101%
COc1cc2nccc(Oc3ccc(NC(=S)NC(=O)c4ccccc4C)cc3)c2cc1OC: 88.5%
O=C1NC(=O)C(c2cn(CCCn3ccnc3)c3ccccc23)=C1Nc1ccccc1: 83.4%
O=C1NC(=O)C(c2cn(CCCO)c3ncccc23)=C1c1cnccn1: 96.9%
O=C(O)c1ccc2c3c1cccc3c(=O)n1c3ccccc3nc21: 22.8%
CO[C@H]1C[C@@H]2CC[C@@H](C)[C@@](O)(O2)C(=O)C(=O)N2CCCC[C@H]2C(=O)O[C@H]([C@H](C)C[C@@H]2CC[C@@H](O)[C@H](OC)C2)CC(=O)[C@H](C)/C=C(\C)[C@@H](O)[C@@H](OC)C(=O)[C@H](C)C[C@H](C)/C=C/C=C/C=C/1C: 107%
CN(C)c1ccc(C=C2C(=O)Nc3ccccc32)cc1: 103%
Nc1ncnc2n[nH]c(Nc3ccc(F)cc3)c12: 92.3%
COc1cc2ncnc(Nc3ccc(Oc4ccccc4)cc3)c2cc1OC: 107%
OCC(O)CCON=C1C(c2c(O)[nH]c3ccccc23)=Nc2ccccc21 (stereo not drawn): 9.42%
Nc1ccc2ncnc(NCCc3ccc(Oc4ccccc4)cc3)c2c1: 99.9%
CCOC(=O)c1c(C)[nH]c(/C=C2\C(=O)Nc3ccccc32)c1C: 89.9%
Nc1[nH]nc2nc3ccccc3nc12: 107%
O=C(CCCc1ccc(-c2ccccc2F)cc1)Nc1ccc(O)cc1: 96.5%

A few entries again (sample 3):
O=c1[nH]c(=O)n([C@H]2C[C@H](O)[C@@H](CO)O2)cc1C(F)(F)F: 64.6%
CC(C)(C)NC[C@H](O)COc1nsnc1N1CCOCC1: 99.7%
COc1cc(N)c(Cl)cc1C(=O)N[C@@H]1CCN(CCCOc2ccc(F)cc2)C[C@@H]1OC (racemic): 83.4%
CC(C(=O)O)c1ccc2c(c1)CC(=O)c1ccccc1S2 (stereo not drawn): 97.5%
CC1(C)[C@@H](O[C@H]2O[C@H](C(=O)O)[C@@H](O)[C@H](O)[C@H]2O[C@@H]2O[C@H](C(=O)O)[C@@H](O)[C@H](O)[C@H]2O)CC[C@]2(C)[C@H]3C(=O)C=C4[C@@H]5C[C@@](C)(C(=O)O)CC[C@]5(C)CC[C@@]4(C)[C@]3(C)CC[C@@H]12: 95% and 104%
